Measured values of several laboratories.
Lines come from different studies, so protocols differ. ± marks the error that the study gave.
Chain of UniProt P21397 (whole entry, looked up): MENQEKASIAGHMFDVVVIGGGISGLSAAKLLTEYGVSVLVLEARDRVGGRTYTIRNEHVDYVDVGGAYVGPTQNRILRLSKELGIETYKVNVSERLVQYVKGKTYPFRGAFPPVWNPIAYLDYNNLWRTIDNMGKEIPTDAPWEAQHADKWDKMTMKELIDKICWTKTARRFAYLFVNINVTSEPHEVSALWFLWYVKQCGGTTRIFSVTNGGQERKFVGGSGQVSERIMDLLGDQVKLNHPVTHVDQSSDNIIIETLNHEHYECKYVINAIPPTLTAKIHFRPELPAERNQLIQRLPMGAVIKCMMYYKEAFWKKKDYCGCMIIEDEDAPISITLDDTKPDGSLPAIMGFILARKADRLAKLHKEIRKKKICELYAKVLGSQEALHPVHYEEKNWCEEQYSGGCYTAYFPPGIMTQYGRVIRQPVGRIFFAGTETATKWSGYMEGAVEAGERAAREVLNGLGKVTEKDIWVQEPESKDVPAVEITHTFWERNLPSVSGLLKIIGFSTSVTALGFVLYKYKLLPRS

`Cc1ccc(CNC(=O)Cc2ccc(-c3ccc(OCCN4CCOCC4)cc3)cn2)cc1` has a clearance of 43 ± 2.5 mL/min/kg (ICR mouse; intravenous, 2 mg/kg).
`O=S(=O)(c1ccccc1)N1CCCCC1` has a recovery of 67% (sodium borate buffer; 24 h, pH 8.0, hydrolytic stability).
`O=C(O)C1OC(OC2C(COS(=O)(=O)O)OC(OC3C(C(=O)O)OC(OC4C(COS(=O)(=O)O)OC(OC5C(C(=O)O)OC(OC6C(COS(=O)(=O)O)OC(OC7C(C(=O)O)OC(OC8C(COS(=O)(=O)O)OC(OC9C(C(=O)O)OC(OC%10C(COS(=O)(=O)O)OC(OC%11C(C(=O)O)OC(Oc%12ccc([N+](=O)[O-])cc%12)C(O)C%11O)C(NS(=O)(=O)O)C%10O)C(OS(=O)(=O)O)C9O)C(NS(=O)(=O)O)C8O)C(OS(=O)(=O)O)C7O)C(NS(=O)(=O)O)C6O)C(OS(=O)(=O)O)C5O)C(NS(=O)(=O)O)C4O)C(OS(=O)(=O)O)C3O)C(NS(=O)(=O)O)C2OS(=O)(=O)O)C(O)C(O)C1OC1OC(COS(=O)(=O)O)C(O)C(O)C1NS(=O)(=O)O` (centres unmarked) gave a haemoglobin of 14.8 ± 0.3 g/dL (rats, blood; intravenous, 3600 µg/kg/day for 7 days, day 8).
Under “renal clearance ratio (0-72 h)”, `CC(C)(Sc1cc[n+]([O-])cc1-c1ccc(C#N)c2ccccc12)C(=O)OC1OC(C(=O)O)C(O)C(O)C1O` (centres unmarked) is recorded as 11.8% (adult men, urine; oral, 15 mg verinurad, severe renal impairment; reference: impaired over normal renal function).
The recovery of `CC[C@H](C)[C@H](NC(=O)[C@H](N)Cc1ccc(O)cc1)C(=O)N[C@H]1CSSC[C@@H](C(=O)N(C)[C@H](C(N)=O)[C@@H](C)CC)NC(=O)[C@H](CCCNC(=N)N)NC(=O)[C@H](Cc2c[nH]cn2)NC(=O)[C@H](C)NC(=O)CN(C)C(=O)[C@H](Cc2c[nH]c3ccccc23)NC(=O)[C@H](CC(=O)O)NC(=O)[C@H](CCC(N)=O)NC(=O)[C@H](Cc2cn(C)c3ccccc23)NC(=O)[C@H](C(C)C)NC1=O` is reported as 100.1 ± 0.1% (UPLC-ESI-MS; human plasma; 0.36 µg/mL, 48 h, 25 °C, bench-top after SPE).
For `C=C(c1ccc(C(=O)O)c(F)c1)c1cc2c(cc1C)C(C)(C)C=CC2(C)C`, the blood triglycerides was 33 ± 1.7 mg/dL (Sprague-Dawley rat, male; oral, 100 mg/kg, 1 h, sesame oil vehicle).
With `CC(C)CCCC(C)CCCC(C)CCO[C@@H]1O[C@H](CO)[C@@H](O[C@H]2O[C@H](CO)[C@@H](O)[C@H](O)[C@H]2O)[C@H](O)[C@H]1O` (some centres unmarked) the diffusion coefficient was ~1.9e-10 m²/s (dynamic surface tension; water; 0.0145 mmol/L).
For `C#CCOc1ccc(/C=C2\SC(=O)N(CC(=O)NCc3ccccc3)C2=O)cc1`, “Kirkwood-Buff integral G1,3” read -277 cm³/mol (inverse Kirkwood-Buff integrals; binary solvent mixture; 298.15 K, mole fraction x1 0.25).
`CC(C)c1cnc(-c2cc(Cl)ccc2F)cc1Nc1ccncc1C(=O)NC(CO)CO`: “patients with related SAE” 0% (measured: pyrexia; human patients; oral, dose not given, grade 3).
With `[64Cu+2].c1cnc(CNCc2ccc(CN3CCCN4CCNCCCN(CC4)CC3)cc2)nc1` the tissue uptake was 1.42 ± 0.21 %ID/g (CXCR4; NOD/SCID mouse, U87 and U87-stb-CXCR4 xenografts, blood; iv, 90 min, ex vivo).
The SUVmean of `O=C([O-])CN1CCN(CC(=O)[O-])CCN(C(CCC(=O)NCCCCCN(CCCC[C@H](NC(=O)N[C@@H](CCC(=O)O)C(=O)O)C(=O)O)C(=O)c2ccc(I)cc2)C(=O)O)CCN(CC(=O)[O-])CC1.[68Ga+3]` (some centres unmarked) is reported as ~3.1 (PET/CT; human, normal liver).
For `CCCC[C@@H]1NC(=O)[C@@H](NC(=O)[C@H](CCC(=O)O)NC(=O)CNC(=O)CN2CCN(CC(=O)O)CCN(CC(=O)O)CCN(CC(=O)O)CC2)CCCCNC(=O)C[C@@H](C(N)=O)NC(=O)[C@H](C(C)C)NC(=O)[C@@H]2CCCN2C(=O)[C@H](CCCNC(=N)N)NC(=O)CNC(=O)[C@H](Cc2c[nH]c3ccccc23)NC(=O)[C@H](CCCNC(=N)N)NC(=O)[C@@H](Cc2ccccc2)NC(=O)[C@H](Cc2c[nH]cn2)NC(=O)[C@H](CCC(=O)O)NC1=O` [gallium-67 labelled], the tissue uptake was 29.7 ± 6.55 %ID/g (C57 mice, B16/F10 lung metastases, kidneys; intravenous, 0.037 MBq/mouse, 2 h).
The hemolysis of `Oc1ccc(F)cc1-c1nc2c(Cl)cc(Cl)cc2[nH]1` is reported as < 50% (defibrinated sheep blood; 400 µM; reference: 1% Triton X-100).
`C=CC(=O)Nc1cc(Nc2nccc(-c3cn(C)c4ccccc34)n2)c(OC)cc1N(C)CCN(C)C`: “steady-state trough concentration” 203 ng/mL (UHPLC-MS/MS; human, finger-prick dried blood spot; oral, 80 mg daily).
Under “Qy/B absorption intensity ratio”, `COCCOCCOCCOCCOCCOCCOCCOCCC(=O)NCCCc1cc2cc3nc(cc4[nH]c(cc5nc(c(OC)c1[nH]2)C(=O)C5(C)C)cc4CCc1ccc(C(=O)O)cc1)CC3(C)C` is recorded as 0.4 (DMF; room temperature).
For `COc1ccc(/C=C/c2ccc(-c3ccc(C)cn3)nc2)cc1`, the fluorescence lifetime was 0.86 ns (TCSPC; DMSO).
`O=C([O-])CN1CCN(CC(=O)[O-])CCN(CC(=O)NC[C@H]2CC[C@H](C(=O)N[C@H](Cc3cnc4ccccc4c3)C(=O)NCCCC[C@H](NC(=O)N[C@@H](CCC(=O)O)C(=O)O)C(=O)O)CC2)CCN(CC(=O)[O-])CC1.[64Cu+2]` gave an absorbed dose of 0.029 mGy/MBq (PET/CT, OLINDA/EXM dosimetry; healthy human volunteers, left colon).
`CCCC[C@H](NC(=O)CN1CCC(NC(=O)CN2CCN(CC(=O)O)CCN(CC(=O)O)CCN(CC(=O)O)CC2)CC1)C(=O)N[C@H]1CC(=O)NCCCC[C@@H](C(N)=O)NC(=O)[C@H](Cc2c[nH]c3ccccc23)NC(=O)[C@H](CCCNC(=N)N)NC(=O)[C@@H](Cc2ccccc2)NC(=O)[C@H](Cc2c[nH]cn2)NC1=O` [gallium-68 labelled] gave an intact compound of > 96% (radio-HPLC; mouse, plasma; intravenous, 8 to 12 MBq, 5 min post injection).
`CCCC[C@H](NC(C)=O)C(=O)N[C@H]1CC(=O)NCCCC[C@@H](C(=O)N[C@@H](C(=O)N2CCC[C@@H]2C(N)=O)C(C)C)NC(=O)[C@H](Cc2c[nH]c3ccccc23)NC(=O)[C@H](CCCN=C(N)N)NC(=O)[C@@H](Cc2ccc3ccccc3c2)NC(=O)[C@@H]2CCCN2C1=O` has a Tmax of 2.2 ± 0.5 h (Beagle dog, both sexes, plasma; subcutaneous, once daily, 2.25 mg/kg, day 28).
With `CCN(CC)CCN=S(=O)(c1ccccc1)N1CCCCC1` (centres unmarked) the recovery was 100% (sodium borate buffer; 24 h, pH 10, hydrolytic stability).
For `N=C(N)NCCC[C@@H]1NC(=O)[C@H](Cc2c[nH]c3ccccc23)NC(=O)[C@@H](CC2CCCCC2)NC(=O)[C@@H]2CCCN2C(=O)[C@@H](NC(=O)CCc2ccccc2)CCCNC1=O`, “alpha distribution rate constant” read 27.4 h⁻¹ (C57BL/6J mouse, spinal cord; intravenous, 1 mg/kg, single dose, two-compartment model).
The intact complex of `CC(=O)N([O-])CCCCCNC(=O)CCC(=O)N([O-])CCCCCNC(=O)CCC(=O)N([O-])CCCCCN.[89Zr+4]` is reported as 97.3 ± 0.6% (radio-iTLC; aqueous buffer; initial, pH 7.5, 37 °C, EDTA challenge, together with: 100-fold excess EDTA).
For `O=C(Nc1ccc2c(c1)CN(c1ccc(Br)cc1)C2=O)N1CCN(c2ccc(F)cc2)CC1`, “remaining parent compound” read 88.6 ± 1.05% (mouse C57BL/6, liver microsomes; 90 min).
Under “metabolite to parent AUClast ratio”, `CCn1c(=O)n(CCO)c(=O)c2c1nc(/C=C/c1ccc(OC)c(OC)c1)n2C` is recorded as 0.0461 (healthy humans, plasma; oral, 40 mg).
With `Cn1c(=O)oc2ccc(-c3ccc(CC(C#N)NC(=O)C4CNCCCO4)c(F)c3)cc21` (centres unmarked) the acne incidence was 0% (human; oral, 10 mg once daily, TEAE, multiple ascending dose).
`Cc1ccc(OCC(=O)N(Cc2cccs2)c2ccn[nH]2)cc1` gave a dose-normalised AUC(0-last) of 0.208 ng·h/mL/mg/kg (Sprague-Dawley rat, male, plasma; oral gavage, 30 mg/kg).
`CC1(C)[C@@H](O)CC[C@]2(C)[C@H]3C(=O)C=C4[C@@H]5C[C@@](C)(C(=O)O)CC[C@]5(C)CC[C@@]4(C)[C@]3(C)CC[C@@H]12` gave a renal clearance of 0.072 to 2.16 mL/day/kg (human, both sexes; oral, 12 capsules).
`[11CH3]c1ccc2nc(C3CCC3)n(-c3ccc4[nH]ncc4c3)c2n1`: “absorbed radiation dose” 12.9 µSv/MBq (standard human adult, liver).
The absorbed dose of `O=C([O-])CN1CCN(CC(=O)[O-])CCN(CC(=O)NCC2CCC(C(=O)NC(Cc3ccc4ccccc4c3)C(=O)NCCCCC(NC(=O)NC(CCC(=O)O)C(=O)O)C(=O)O)CC2)CCN(CC(=O)[O-])CC1.[44Sc+3]` (centres unmarked) is reported as 0.177 mSv/MBq (PET/CT, OLINDA/EXM; human patients, spleen; mean of patients).
`CC(OS(=O)(=O)O)c1nc(-c2ccc3c(c2)CCC3NC(=O)c2cnn(C)c2)no1` (centres unmarked): “radioactive dose excreted in urine” 1.14% (human, pooled urine; oral, 20 mg; reference: dose).
`COc1cc(C)c(Cc2ccc(O)cc2)cc1[C@@H]1S[C@H](CO)[C@@H](O)[C@H](O)[C@H]1O` gave an AUC(0-τ) ratio of 0.138 ± 0.0172 (Japanese T2DM patients, plasma; 0.5 mg luseogliflozin, day 7, once daily; reference: compound over luseogliflozin).
The Ki of `COc1ccc(CCCN[C@@H]2CCC[C@H]2CN[C@H]2CCC[C@@H]2CNCCCCN[C@@H]2CCC[C@H]2CN)cc1` is reported as > 500 µM (MAOA (Homo sapiens, UniProt P21397); enzyme activity, inhibitor; together with: tyramine 50 µM).
`O=C(O)[C@@H]1C[C@@H](O)CN1C(=O)[C@@H]1CCCN1` gave a log beta of 14.5 (potentiometric titration; 25 °C, MA complex, together with: Fe(III)).
`CSCOC1C(=O)C2(C)C(OCSC)CC3OCC3(OC(C)=O)C2C(OC(=O)c2ccccc2)C2(O)CC(OC(=O)C(O)C(C=C(C)C)NC(=O)OC(C)(C)C)C(C)=C1C2(C)C` (centres unmarked) has a Vd of 89.1 L/kg (male Sprague-Dawley rat, plasma; intravenous, 2 mg/kg).
`COC(=O)c1ccc(-c2cn(Cc3cc(Cl)ccc3O[11CH3])nn2)cc1` has a distribution volume of 0.559 mL/cm³ (PET, one-tissue compartment model; rhesus monkey, brain Amygdala; dose not given).
With `NC(=O)c1cnc2[nH]ccc2c1NC1C2CC3CC1CC(OS(=O)(=O)O)(C3)C2` (centres unmarked) the AUC(0-t) was 4370 ng·h/mL (Japanese adults, mild hepatic impairment, plasma; oral, 150 mg single dose).
`[Cl-].[Cl-].[Ru+2].c1ccc2nc3c4cccnc4c4ncccc4c3nc2c1.c1ccncc1.c1ccncc1.c1ccncc1.c1ccncc1` has a hemolysis of 0.64 ± 0.01% (red blood cells, rabbit; 20 µM, 2 h, 37 °C).
The dose-normalised Cmax of `Cc1nc2cccc(OCC(C)(C)C(=O)NC(C)C)c2c(N)c1C(=O)O.O=P(O)(O)O` is reported as 1.29 ng/mL/mg/kg (male Sprague-Dawley rat, plasma; oral gavage, 30 mg/kg single dose).
Under “metabolite peak area”, `COC[C@@H](CC(C)C)NC(=O)c1ccc(CO)c(C)c1` is recorded as ~21.2% (LC-MS; human liver microsomes; 10 µM of parent drug, 60 min, pH 7.4, together with: NADPH; reference: parent drug at time zero).
Under “fraction excreted unchanged”, `CC(C)(Sc1ccncc1-c1ccc(C#N)c2ccccc12)C(=O)OC1OC(C(=O)O)C(O)C(O)C1O` (centres unmarked) is recorded as 13.1% (urine; oral, 15 mg, 72 h, moderate renal impairment; reference: dose).
Under “time of quantifiable concentrations”, `CC(C)[C@H](NC(=O)CNC(=O)[C@H](CCC(N)=O)NC(=O)[C@H](C)N)C(=O)O` is recorded as ≤ 45 min (human; 20 mg/kg, multiple dosing; up to).
For `O=C1c2sc(-c3ccc(N4CCC(CO)CC4)nc3F)nc2CCN1c1cccnc1`, “peak brain uptake” read 1 % injected dose (PET imaging; rhesus monkey, whole brain; intravenous bolus).
`CCCC[C@H](NC(=O)CNC(=O)CNC(=O)CN1CCN(CC(=O)O)CCN(CC(=O)O)CCN(CC(=O)O)CC1)C(=O)N[C@H]1CC(=O)NCCCC[C@@H](C(N)=O)NC(=O)[C@H](Cc2c[nH]c3ccccc23)NC(=O)[C@H](CCCNC(=N)N)NC(=O)[C@@H](Cc2ccccc2)NC(=O)[C@H](Cc2c[nH]cn2)NC1=O` [gallium-67 labelled] gave a urinary excretion of 92.7 ± 1.09% (C57 mice, female, B16/F1 melanoma, urine; intravenous, 0.037 MBq, 24 h).
For `Oc1ccc2ccccc2c1/N=N/c1ccccc1`, the measured concentration was 0.216 µg/L (extracted rat blood QC samples; 0.2 µg/L, 12 h, room temperature, short-term stability).

For quick reference, copied from above:
Under “metabolite peak area”, `COC[C@@H](CC(C)C)NC(=O)c1ccc(CO)c(C)c1` is recorded as ~21.2% (LC-MS; human liver microsomes; 10 µM of parent drug, 60 min, pH 7.4, together with: NADPH; reference: parent drug at time zero).
`CC(OS(=O)(=O)O)c1nc(-c2ccc3c(c2)CCC3NC(=O)c2cnn(C)c2)no1` (centres unmarked): “radioactive dose excreted in urine” 1.14% (human, pooled urine; oral, 20 mg; reference: dose).
Under “Qy/B absorption intensity ratio”, `COCCOCCOCCOCCOCCOCCOCCOCCC(=O)NCCCc1cc2cc3nc(cc4[nH]c(cc5nc(c(OC)c1[nH]2)C(=O)C5(C)C)cc4CCc1ccc(C(=O)O)cc1)CC3(C)C` is recorded as 0.4 (DMF; room temperature).
